Experimental data gathered from unrelated publications.
Each line is one published result; not all experiments were run side by side. ± gives the spread as reported.
HDAC6: Protein deacetylase HDAC6 (HDAC6, Homo sapiens, UniProt Q9UBN7)
Sequence of UniProt Q9UBN7 (whole entry, looked up): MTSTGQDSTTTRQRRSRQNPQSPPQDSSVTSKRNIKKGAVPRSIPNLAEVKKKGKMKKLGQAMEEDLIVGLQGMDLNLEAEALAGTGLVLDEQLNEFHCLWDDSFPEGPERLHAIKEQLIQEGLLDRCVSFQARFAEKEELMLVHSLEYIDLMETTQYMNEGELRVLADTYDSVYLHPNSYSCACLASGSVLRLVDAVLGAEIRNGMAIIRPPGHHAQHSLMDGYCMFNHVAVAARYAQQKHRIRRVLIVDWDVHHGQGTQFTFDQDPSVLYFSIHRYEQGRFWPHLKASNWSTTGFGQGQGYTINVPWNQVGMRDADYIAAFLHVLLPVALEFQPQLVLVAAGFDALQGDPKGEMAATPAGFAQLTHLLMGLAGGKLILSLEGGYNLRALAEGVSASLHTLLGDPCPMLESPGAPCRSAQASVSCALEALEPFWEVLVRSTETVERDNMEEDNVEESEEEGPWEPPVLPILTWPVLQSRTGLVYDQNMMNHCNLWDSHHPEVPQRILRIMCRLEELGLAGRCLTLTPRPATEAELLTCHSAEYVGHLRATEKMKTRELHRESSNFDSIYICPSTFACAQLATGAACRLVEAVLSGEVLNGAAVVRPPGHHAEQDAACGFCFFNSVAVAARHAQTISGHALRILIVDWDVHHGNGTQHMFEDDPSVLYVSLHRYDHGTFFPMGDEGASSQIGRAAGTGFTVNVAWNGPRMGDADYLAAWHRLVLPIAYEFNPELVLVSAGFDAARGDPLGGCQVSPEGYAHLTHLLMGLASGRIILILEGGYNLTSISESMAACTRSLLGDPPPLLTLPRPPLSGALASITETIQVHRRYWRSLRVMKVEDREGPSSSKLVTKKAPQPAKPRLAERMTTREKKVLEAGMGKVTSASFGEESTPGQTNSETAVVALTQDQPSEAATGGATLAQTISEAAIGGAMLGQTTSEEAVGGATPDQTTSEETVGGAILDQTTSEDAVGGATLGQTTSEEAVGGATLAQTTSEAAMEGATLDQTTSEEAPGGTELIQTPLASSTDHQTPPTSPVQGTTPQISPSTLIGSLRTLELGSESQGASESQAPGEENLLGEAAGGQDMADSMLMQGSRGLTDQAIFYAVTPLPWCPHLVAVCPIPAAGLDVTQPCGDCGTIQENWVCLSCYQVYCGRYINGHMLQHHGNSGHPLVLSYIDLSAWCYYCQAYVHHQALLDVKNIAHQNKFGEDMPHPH
WDR5: WD repeat-containing protein 5 (WDR5, Homo sapiens, UniProt P61964)
CA12: Carbonic anhydrase 12 (CA12, Homo sapiens, UniProt O43570)
Sequence of UniProt O43570 (whole entry, looked up): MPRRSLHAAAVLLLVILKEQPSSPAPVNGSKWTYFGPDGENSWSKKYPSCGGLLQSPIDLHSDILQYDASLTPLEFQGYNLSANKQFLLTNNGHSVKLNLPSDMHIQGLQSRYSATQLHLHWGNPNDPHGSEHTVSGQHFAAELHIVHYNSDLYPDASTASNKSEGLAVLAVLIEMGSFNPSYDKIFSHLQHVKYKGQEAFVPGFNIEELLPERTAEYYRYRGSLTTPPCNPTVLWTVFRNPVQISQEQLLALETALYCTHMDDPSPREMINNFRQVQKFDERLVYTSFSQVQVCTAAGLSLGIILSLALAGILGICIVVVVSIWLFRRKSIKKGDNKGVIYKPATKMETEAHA
POLL: DNA polymerase lambda (POLL, Homo sapiens, UniProt Q9UGP5)
Sequence of UniProt Q9UGP5 (whole entry, looked up): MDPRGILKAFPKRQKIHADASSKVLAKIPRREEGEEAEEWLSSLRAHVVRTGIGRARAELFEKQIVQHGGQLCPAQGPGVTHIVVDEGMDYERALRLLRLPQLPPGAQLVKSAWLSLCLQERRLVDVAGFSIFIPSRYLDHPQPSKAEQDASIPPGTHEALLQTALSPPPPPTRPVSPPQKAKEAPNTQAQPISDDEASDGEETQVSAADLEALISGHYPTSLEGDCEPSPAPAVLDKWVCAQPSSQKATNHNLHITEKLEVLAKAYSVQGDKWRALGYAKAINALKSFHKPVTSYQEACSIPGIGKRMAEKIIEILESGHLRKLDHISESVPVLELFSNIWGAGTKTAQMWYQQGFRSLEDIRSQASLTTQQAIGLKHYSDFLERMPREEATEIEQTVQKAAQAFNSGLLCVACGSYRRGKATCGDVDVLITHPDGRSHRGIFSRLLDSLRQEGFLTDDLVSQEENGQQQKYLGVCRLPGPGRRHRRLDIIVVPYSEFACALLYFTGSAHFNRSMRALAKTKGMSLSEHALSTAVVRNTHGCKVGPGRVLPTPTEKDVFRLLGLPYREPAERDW
GBA1 R534H: Lysosomal acid glucosylceramidase (GBA1, Homo sapiens, UniProt P04062, R534H)
Sequence of UniProt P04062 (whole entry, unmodified, looked up): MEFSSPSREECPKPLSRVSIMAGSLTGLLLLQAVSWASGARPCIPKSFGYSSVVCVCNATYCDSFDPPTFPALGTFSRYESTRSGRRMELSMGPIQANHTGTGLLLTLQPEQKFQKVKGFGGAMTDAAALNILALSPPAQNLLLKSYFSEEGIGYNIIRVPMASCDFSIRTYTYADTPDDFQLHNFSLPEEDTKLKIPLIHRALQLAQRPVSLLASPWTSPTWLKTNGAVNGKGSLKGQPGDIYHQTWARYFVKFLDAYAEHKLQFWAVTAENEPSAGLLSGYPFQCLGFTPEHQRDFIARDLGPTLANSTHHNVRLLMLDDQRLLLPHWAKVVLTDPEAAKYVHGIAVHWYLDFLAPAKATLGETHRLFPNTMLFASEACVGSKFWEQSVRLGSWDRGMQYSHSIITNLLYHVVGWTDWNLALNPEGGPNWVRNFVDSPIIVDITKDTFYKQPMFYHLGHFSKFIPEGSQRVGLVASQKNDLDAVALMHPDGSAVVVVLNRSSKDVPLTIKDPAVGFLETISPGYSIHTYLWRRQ
Sequence of UniProt P28221 (whole entry, looked up): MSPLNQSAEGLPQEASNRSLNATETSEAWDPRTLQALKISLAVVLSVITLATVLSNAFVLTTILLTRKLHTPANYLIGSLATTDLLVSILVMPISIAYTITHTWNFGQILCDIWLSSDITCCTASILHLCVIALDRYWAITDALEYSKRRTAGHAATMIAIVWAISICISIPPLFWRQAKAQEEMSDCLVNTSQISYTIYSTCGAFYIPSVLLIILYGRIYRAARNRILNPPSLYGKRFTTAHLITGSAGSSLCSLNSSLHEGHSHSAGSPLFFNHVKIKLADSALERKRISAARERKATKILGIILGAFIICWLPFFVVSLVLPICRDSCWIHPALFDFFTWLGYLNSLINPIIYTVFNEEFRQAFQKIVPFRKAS
Sequence of UniProt P45983 (whole entry, looked up): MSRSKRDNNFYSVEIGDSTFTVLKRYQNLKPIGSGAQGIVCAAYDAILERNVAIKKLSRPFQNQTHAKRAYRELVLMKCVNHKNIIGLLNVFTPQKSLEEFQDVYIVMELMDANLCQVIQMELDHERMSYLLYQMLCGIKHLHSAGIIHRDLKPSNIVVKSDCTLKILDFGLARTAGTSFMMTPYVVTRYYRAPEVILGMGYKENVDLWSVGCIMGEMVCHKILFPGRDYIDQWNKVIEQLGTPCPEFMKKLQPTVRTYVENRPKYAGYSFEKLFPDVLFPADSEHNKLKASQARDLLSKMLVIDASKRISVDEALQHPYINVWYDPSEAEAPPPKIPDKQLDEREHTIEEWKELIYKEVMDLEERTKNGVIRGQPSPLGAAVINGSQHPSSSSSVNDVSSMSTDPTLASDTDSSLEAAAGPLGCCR
Sequence of UniProt P11086 (whole entry, looked up): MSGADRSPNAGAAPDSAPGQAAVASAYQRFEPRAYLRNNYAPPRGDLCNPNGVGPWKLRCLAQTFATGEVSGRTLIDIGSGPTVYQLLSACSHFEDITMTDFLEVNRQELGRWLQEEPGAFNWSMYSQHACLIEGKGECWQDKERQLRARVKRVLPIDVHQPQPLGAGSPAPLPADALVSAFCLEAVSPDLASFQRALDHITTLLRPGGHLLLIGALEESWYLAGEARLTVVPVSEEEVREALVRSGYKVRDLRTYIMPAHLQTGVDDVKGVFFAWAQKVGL

Structure (SMILES) | target | assay | setting | quantity | value
O[C@@H]1[C@@H](O)[C@H](F)C=C[C@H]1O | GBA1 (Homo sapiens, UniProt P04062) | covalent inhibitor, continuous progress curves | pH 5.2, 25 °C | Ki | 3400 µM
O=C(NO)c1cncc(OS(=O)(=O)Oc2ccc(Oc3ccccc3)cc2)c1 | HDAC6 | enzyme activity, inhibitor, fluorescence |  | Ki | 0.268 µM
CC[C@@H]1NC(=O)[C@H](CCCNC(=N)N)NC(=O)[C@H](NC(=O)C(C)C)CCNC(=O)c2cc(F)c(c(F)c2)N=Nc2c(F)cc(cc2F)C(=O)NCCNC1=O | WDR5 | binding, inhibitor, competitive fluorescence polarization | cis isomer, 520 nm photostationary state | Ki | 0.459 µM
O=C(NO)c1cc(F)cc(OS(=O)(=O)Oc2ccc(Br)cc2)c1 | HDAC6 | enzyme activity, inhibitor, fluorescence |  | Ki | 0.1 µM
Cn1ccc2c(N3CCN(CCCCOc4ccc5c(c4)NC(=O)CC5)CC3)cccc21 | HTR1D (Homo sapiens, UniProt P28221) | ligand displacement, radioligand |  | Ki | 0.643 µM
COC(=O)[C@@]1(C)C=C(C(=O)Nc2cccc(C(=O)Nc3ccc(Nc4nccc(-c5cccnc5)n4)c(C)c3)c2)C(=O)CC1 | MAPK8 (Homo sapiens, UniProt P45983) | SPR two-step binding model | wild-type protein surface | Ki | 0.0021 µM
Nc1ncnc2c1ncn2[C@@H]1O[C@H](CN(CCCc2cncc3ccccc23)CC[C@H](N)C(=O)O)[C@@H](O)[C@H]1O | PNMT (Homo sapiens, UniProt P11086) | enzyme activity, inhibitor, coupled-enzyme |  | Ki | 64 ± 10 µM
CC1(C)OCCc2cc(C(=O)N3CCC(c4nc(-c5ccccc5)n[nH]4)CC3)ccc21 | FSP1 | NADH oxidase activity, inhibitor | pH 7.2, together with: NADH varied, no coenzyme Q1 | Ki | 3.56 ± 0.82 µM
O=C1CCCCO1 | CA12 | enzyme activity, inhibitor, stopped-flow |  | Ki | 8.2 µM
Cc1cc(=O)oc2cc(OCCCCCCSC#N)ccc12 | CA12 | enzyme activity, inhibitor, stopped-flow |  | Ki | 0.0631 µM
CC[C@@H]1NC(=O)[C@H](CCCNC(=N)N)NC(=O)[C@H](NC(=O)C(C)C)CCCCNC(=O)c2cc(F)c(c(F)c2)N=Nc2c(F)cc(cc2F)C(=O)NCCNC1=O | WDR5 | binding, inhibitor, competitive fluorescence polarization | cis isomer, 520 nm photostationary state | Ki | 2.9 µM
O=C(NO)c1cc(F)cc(OS(=O)(=O)Oc2ccc3ccccc3c2)c1 | HDAC6 | enzyme activity, inhibitor, fluorescence |  | Ki | 0.053 µM
O=C(OCCCCOP(=O)(O)OP(=O)(O)OP(=O)(O)O)c1ccccc1 | POLL | DNA polymerase activity, inhibitor | together with: 1 mM Mg2+, poly(dA)/oligo(dT) | Ki | 2.2 µM
OC[C@@H]1[C@@H](O)[C@H](O)[C@@H](O)CN1CCCCCOCc1ccc(-c2ccc(F)cc2)cc1 | GBA1 R534H | inhibitor, 4MU-β-D-glucopyranoside | together with: 4MU-β-D-glucopyranoside | IC50 | 0.4 µM
O=C(NCCCOP(=O)(O)OP(=O)(O)OP(=O)(O)O)OCC1c2ccccc2-c2ccccc21 | POLL | enzyme activity, inhibitor, radiometric |  | Ki | 2.2 µM
O=C1CCc2c(ccc3ccccc23)O1 | CA12 | enzyme activity, inhibitor, stopped-flow |  | Ki | 5.7 µM
CCCCCCN1C[C@H](O)[C@@H](O)[C@H](O)[C@@H]1CO | GBA1 R534H | inhibitor, 4MU-β-D-glucopyranoside | together with: 4MU-β-D-glucopyranoside | IC50 | 1000 µM
